Results from different studies.
Lines come from different studies, so protocols differ.
MAPK8: Mitogen-activated protein kinase 8 (MAPK8, Homo sapiens, UniProt P45983)
Sequence of UniProt P45983 (whole entry, looked up): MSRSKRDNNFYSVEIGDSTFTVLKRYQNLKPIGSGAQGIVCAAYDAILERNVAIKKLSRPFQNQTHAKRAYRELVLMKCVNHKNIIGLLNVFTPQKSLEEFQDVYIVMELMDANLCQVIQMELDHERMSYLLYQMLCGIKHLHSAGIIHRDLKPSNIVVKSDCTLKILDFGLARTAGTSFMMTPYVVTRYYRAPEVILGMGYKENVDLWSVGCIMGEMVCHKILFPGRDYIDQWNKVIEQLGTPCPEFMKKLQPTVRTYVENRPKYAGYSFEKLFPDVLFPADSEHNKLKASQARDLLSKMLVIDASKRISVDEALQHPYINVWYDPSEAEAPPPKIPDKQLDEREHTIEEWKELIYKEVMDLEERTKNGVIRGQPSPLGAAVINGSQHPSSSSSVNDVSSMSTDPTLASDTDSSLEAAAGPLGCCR

`Cc1cc(NC(=O)c2cccc(NC(=O)/C(C#N)=C/C(C)(C)C)c2)ccc1Nc1nccc(-c2cccnc2)n1` gave a remaining activity of 0.443 (Mitogen-activated protein kinase 8, phosphorylated (MAPK8, Homo sapiens, UniProt P45983); enzyme activity after dialysis, inhibitor; 10 µM, 3 days, unit not given; relative to: no inhibitor).
`c1ccc2c(Nc3cc(C4CCC4)[nH]n3)nc(Nc3ccc4nc[nH]c4c3)nc2c1` has a remaining activity of 95% (MAPK8; enzyme activity, inhibitor; 0.25 µM).
For `O=C=[N][Ru-4]123([n]4c5ccc(O)cc5c5c6c(c7cc(F)c[n+]1c7c54)C(=O)NC6=O)[S+]1CC[S+]2CC[S+]3CC1` (stereo not shown), the remaining activity was 106% (MAPK8; enzyme activity; 100 nM, human enzyme, with: 10 µM ATP; relative to: untreated).
The remaining activity of `COCC12C(=O)NC3C4(C(OC)CC1O)C1CC5(O)C(OC)C(O)C(OC(C)=O)(C1C5OC(=O)c1ccccc1)C3(O)C(OC)C24` (stereo not shown) is reported as 104% (MAPK8; kinase activity, inhibitor, ProQinase kinase profiling; 25 µM; relative to: control).
`Cc1ccc(C)c(-c2ccc3nc(NC(=O)C4CCCCC4)nn3c2)c1` has a remaining activity of 101% (MAPK8; enzyme activity, Dundee kinase panel; 10 µM).
The remaining activity of `COc1c(OCCCN2CCOCC2)ccc2c1N=C(NC(=O)c1cnc(N)nc1)N1CCN=C21` is reported as 104% (MAPK8; kinase activity, inhibitor; 1 µM; relative to: untreated control).
With `COc1ccc(NC(=O)Nc2ccc3c(c2)C(=O)N(C(C)CO)CC(C)C(CN(C)Cc2ccc4c(c2)OCO4)O3)cc1` (stereo not shown) the remaining activity was 106% (MAPK8; kinase activity, KinaseProfiler; 0.03 µM, species human; relative to: control).
With `COC(=O)[C@@]1(C)C=C(C(=O)Nc2cccc(C(=O)Nc3ccc(Nc4nccc(-c5cccnc5)n4)c(C)c3)c2)C(=O)CC1` the remaining activity was 0.00878 (MAPK8; enzyme activity, inhibitor; 44.44 µM, 0 h, unit not given, with: GSH 10 mM pre-incubation; relative to: vehicle).
`Cc1cccc(-c2ccc3nc(NC(=O)C4CCCCC4)nn3c2)c1` gave a remaining activity of 101% (MAPK8; enzyme activity, Dundee kinase panel; 10 µM).
The remaining activity of `Nc1nc(Nc2ccccc2)sc1C(=O)c1ccccc1` is reported as 36% (MAPK8; enzyme activity, inhibitor; 10 µM).

Repeated from above:
For `O=C=[N][Ru-4]123([n]4c5ccc(O)cc5c5c6c(c7cc(F)c[n+]1c7c54)C(=O)NC6=O)[S+]1CC[S+]2CC[S+]3CC1` (stereo not shown), the remaining activity was 106% (MAPK8; enzyme activity; 100 nM, human enzyme, with: 10 µM ATP; relative to: untreated).
